Measured values of several laboratories.
Protocols differ between the studies behind these lines.
B1: fruR 1-326 (Vibrio cholerae, UniProt Q9KM69); chain MTLDEIAKLAGVSKTTASYVINGKAQKYRISEKTQHKVMAVVEQYNFRPDHAASALRAGNSRSFGLIIPDLENTSYARLAKLLEQNSRQAGYQILIACSDDDPQIEMAAAEALVSRRIDALFVASGIPSASEYYLKLQQSGTPVIAIDRALDDEYFSCVISEDFGAAFELTRSVLTQDVHSVGLVGALPELNVSREREQGFAMAVKQRGLPTTLGYGEHFNREEGRKVFAKWVANDQLPDAVVATSYTLLEGILDVLLEQPELMQKVRLATFGDNRLLDFLPIRVNSLPQQFELIADSALALALNASAKRYQTGIELIPRQLKVRT
B2: HigA 1-104 (Proteus vulgaris, UniProt Q7A224); selenomethionine; sequence looked up; chain MRQFKVSHPGEMIARDLEDMGVSGRRFAHNIGVTPATVSRLLAGKTALTPSLSIRIAAALGSTPEFWLRLQSNYDLRQLENQIDTSGIVLYGESNEQQQNAQEH
B3: pnp 1-763 Q546A/D548A (Mycobacterium smegmatis, UniProt A0QVQ5); chain MSVVELEDGVYESTAVIDNGSFGTRTIRFETGRLAQQAAGSAVAYLDDETMLLSATTASKNPKDHFDFFPLTVDVEERMYAAGRIPGSFFRREGRPSTDAILTCRLIDRPLRPSFVDGLRNEIQVVVTVMSLDPKDLYDVLAINAASMSTQLAGLPFSGPVGGARIALIDGTWVAFPTVEQLERAVFDMVVAGRIVGDGDSADVAIMMVEAEATENVVELVAGGAQAPTEAVVAEGLEAAKPFIKALCAAQQELADRAAKPAGEYPVFPDYEADVYDAVASVATEALAEALTIAGKTERNDRTDEIKVEVLERLAEPYAGREKEIGAAFRSLTKKLVRQRILTDHFRIDGRGITDIRALSAEVAVIPRAHGSALFERGETQILGVTTLDMIKMAQQIDSLGPENTKRYMHHYNFPPYSTGETGRVGSPKRREIGHGALAERALVPVLPSIEEFPYAIRQVSEALGSNGSTSMGSVCASTLALLNAGVPLKAPVAGIAMGLVSDDVDVDGKVEKRYVALTDILGAEDAFGDMDFKVAGTKDFVTALALATKLDGIPSQVLAGALSQAKDARLTILDVMAEAIDRPDEMSPYAPRITTIKVPVDKIGEVIGPKGKMINSITEETGAQISIEDDGTVFVGAADGLSAQAAIDKINAIANPQLPKVGERFLGTVVKTTDFGAFVSLLPGRDGLVHISKLGKGKRIAKVEDVVKVGDKLRVEIADIDNRGKISLVLVAEESAESAESAGDKGAEKAEGAAADVTPAEA
B4: hipA 2-437 D309Q (Escherichia coli, UniProt P23874); chain PKLVTWMNNQRVGELTKLANGAHTFKYAPEWLASRYARPLSLSLPLQRGNITSDAVFNFFDNLLPDSPIVRDRIVKRYHAKSRQPFDLLSEIGRDSVGAVTLIPEDETVTHPIMAWEKLTEARLEEVLTAYKADIPLGMIREENDFRISVAGAQEKTALLRIGNDWCIPKGITPTTHIIKLPIGEIRQPNATLDLSQSVDNEYYCLLLAKELGLNVPDAEIIKAGNVRALAVERFDRRWNAERTVLLRLPQEDMCQTFGLPSSVKYESDGGPGIARIMAFLMGSSEALKDRYDFMKFQVFQWLIGATQGHAKNFSVFIQAGGSYRLTPFYDIISAFPVLGGTGIHISDLKLAMGLNASKGKKTAIDKIYPRHFLATAKVLRFPEVQMHEILSDFARMIPAALDNVKTSLPTDFPENVVTAVESNVLRLHGRLSREY
B5: mpr N176A (Mycobacterium smegmatis, UniProt Q50442); chain MTTPQPYPGMPSQPAPQGVPYPPQQPAKKKRKWPAIVGGVIALMIVGSIFNDDKKDTTPAENTATVAQAPAAAPTKEVPETTATINTPVRDGKFEFVVRSVEPGLSEVGDNPFLNQKAQGQFVIVTLSVQNIGDRPQGFSPSNQKLFDTEGRSFETDTSAQIALDNNDIAVWDNIAPGNTVDVSLVYDMPVDAVPASIELHDSMFSGGVTVNLTP
B6: pnp 1-763 R431A (Mycobacterium smegmatis, UniProt A0QVQ5); chain MSVVELEDGVYESTAVIDNGSFGTRTIRFETGRLAQQAAGSAVAYLDDETMLLSATTASKNPKDHFDFFPLTVDVEERMYAAGRIPGSFFRREGRPSTDAILTCRLIDRPLRPSFVDGLRNEIQVVVTVMSLDPKDLYDVLAINAASMSTQLAGLPFSGPVGGARIALIDGTWVAFPTVEQLERAVFDMVVAGRIVGDGDSADVAIMMVEAEATENVVELVAGGAQAPTEAVVAEGLEAAKPFIKALCAAQQELADRAAKPAGEYPVFPDYEADVYDAVASVATEALAEALTIAGKTERNDRTDEIKVEVLERLAEPYAGREKEIGAAFRSLTKKLVRQRILTDHFRIDGRGITDIRALSAEVAVIPRAHGSALFERGETQILGVTTLDMIKMAQQIDSLGPENTKRYMHHYNFPPYSTGETGRVGSPKRAEIGHGALAERALVPVLPSIEEFPYAIRQVSEALGSNGSTSMGSVCASTLALLNAGVPLKAPVAGIAMGLVSDDVDVDGKVEKRYVALTDILGAEDAFGDMDFKVAGTKDFVTALQLDTKLDGIPSQVLAGALSQAKDARLTILDVMAEAIDRPDEMSPYAPRITTIKVPVDKIGEVIGPKGKMINSITEETGAQISIEDDGTVFVGAADGLSAQAAIDKINAIANPQLPKVGERFLGTVVKTTDFGAFVSLLPGRDGLVHISKLGKGKRIAKVEDVVKVGDKLRVEIADIDNRGKISLVLVAEESAESAESAGDKGAEKAEGAAADVTPAEA
B7: NFR5 276-595 V294E/Y297E/V298E (Lotus japonicus, UniProt Q70KR1); chain ALNRTASSAETADKLLSGESGEESKPNVYEIDEIMEATKDFSDECKVGESVYKANIEGRVVAVKKIKEGGANEELKILQKVNHGNLVKLMGVSSGYDGNCFLVYEYAENGSLAEWLFSKSSGTPNSLTWSQRISIAVDVAVGLQYMHEHTYPRIIHRDITTSNILLDSNFKAKIANFAMARTSTNPMMPKIDVFAFGVLLIELLTGRKAMTTKENGEVVMLWKDMWEIFDIEENREERIRKWMDPNLESFYHIDNALSLASLAVNCTADKSLSRPSMAEIVLSLSFLTQQSSNPTLERSLTSSGLDVEDDAHIVTSITAR
UniProt P06179, sequence (whole entry, looked up): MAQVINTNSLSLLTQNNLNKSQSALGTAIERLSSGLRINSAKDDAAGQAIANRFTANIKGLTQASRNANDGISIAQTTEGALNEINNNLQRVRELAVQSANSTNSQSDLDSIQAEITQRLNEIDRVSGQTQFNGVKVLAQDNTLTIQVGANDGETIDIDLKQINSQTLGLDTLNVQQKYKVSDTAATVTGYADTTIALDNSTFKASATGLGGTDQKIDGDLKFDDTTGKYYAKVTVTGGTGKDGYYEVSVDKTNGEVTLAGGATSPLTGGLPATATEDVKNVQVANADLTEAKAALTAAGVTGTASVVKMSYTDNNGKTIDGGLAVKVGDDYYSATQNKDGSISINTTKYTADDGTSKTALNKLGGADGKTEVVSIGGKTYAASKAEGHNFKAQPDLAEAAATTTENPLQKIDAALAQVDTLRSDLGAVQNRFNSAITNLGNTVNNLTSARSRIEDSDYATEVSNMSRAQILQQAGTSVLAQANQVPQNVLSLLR
UniProt Q9UBH6, sequence (whole entry, looked up): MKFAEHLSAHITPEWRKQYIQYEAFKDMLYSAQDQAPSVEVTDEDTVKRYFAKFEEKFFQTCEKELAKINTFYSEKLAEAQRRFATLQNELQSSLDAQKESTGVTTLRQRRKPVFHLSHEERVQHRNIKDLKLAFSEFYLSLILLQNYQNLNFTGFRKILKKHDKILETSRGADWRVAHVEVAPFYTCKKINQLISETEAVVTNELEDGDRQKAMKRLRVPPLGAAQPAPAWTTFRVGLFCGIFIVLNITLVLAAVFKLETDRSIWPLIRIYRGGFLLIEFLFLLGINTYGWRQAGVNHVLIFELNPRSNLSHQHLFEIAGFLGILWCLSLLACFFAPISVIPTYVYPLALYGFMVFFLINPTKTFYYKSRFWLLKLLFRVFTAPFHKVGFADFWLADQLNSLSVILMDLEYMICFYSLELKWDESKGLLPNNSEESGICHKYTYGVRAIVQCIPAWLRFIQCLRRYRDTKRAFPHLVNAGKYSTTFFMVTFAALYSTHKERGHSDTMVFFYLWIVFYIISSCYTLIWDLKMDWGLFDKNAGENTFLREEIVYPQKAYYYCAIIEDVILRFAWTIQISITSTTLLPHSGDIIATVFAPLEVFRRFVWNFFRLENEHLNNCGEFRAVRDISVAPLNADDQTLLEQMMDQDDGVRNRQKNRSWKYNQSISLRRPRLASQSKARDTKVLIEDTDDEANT

B1 (fruR 1-326)
binding (itself; crystal structure): binds

MMIALGVACAIALAIAAVYF (VAMP2 TMD)
binding (itself; X-ray crystallography; peptide): binds

XPR1 (Homo sapiens, UniProt Q9UBH6)
binding (itself; cryo-EM): binds

B2 (HigA 1-104)
binding (itself; X-ray crystallography): binds

B3 (pnp 1-763 Q546A/D548A)
binding (itself; SEC): binds

B4 (hipA 2-437 D309Q)
binding (itself; crystal structure): binds

fliC mature (Salmonella Typhimurium, UniProt P06179)
binding (itself; fluorescence microscopy): binds

B5 (mpr N176A)
binding (itself; cross-linking; added: GTP): binds

B6 (pnp 1-763 R431A)
binding (itself; SEC): binds

B7 (NFR5 276-595 V294E/Y297E/V298E)
binding (itself; dynamic light scattering): binds

insulin human
fold change (item: NEGR1 mRNA; uninfected mouse, brain; i.p., dose not given; reference: PBS): 1.26

Repeated from above:
B4 (hipA 2-437 D309Q)
binding (itself; crystal structure): binds
